Published values gathered from unrelated publications.
A part holds a random share of what one study measured.

Sample 1
Target: RNA binding protein fox-1 homolog 2, RRM domain, GST-SBP tag (RBFOX2, Homo sapiens, UniProt O43251-10, residues 100-194)
Method: RNA Bind-n-Seq
Form: RNA
Matrix: in vitro
Tested at: 365 nM
Setting: natural RNA segment, single round, ends assumed
Reference: no-protein control
Direction: higher = stronger binding
All sequences stand within: GGGAGUUCUACAGUCCGACGAUC … UGGAAUUCUCGGGUGCCAA
Residues (chain): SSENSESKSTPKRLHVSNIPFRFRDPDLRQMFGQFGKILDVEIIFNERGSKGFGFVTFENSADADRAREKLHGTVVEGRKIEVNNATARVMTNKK
Oligonucleotide	RBNS enrichment (R)
GUCUUCACUGUGACCAAUCGGAGUCCCUGCUUGCUUGUGAAGAAGGGGCUUUUGUACCUUGUUGGAGAUGCCACCUCAGAAGUUCACACUGUGCAGGAAAAAGGUUUUAU	1.42
UUUGUUUAUUAACCUUUCCGUGUUUAAUGAAAACAAACAGGGAUAAAUAAAGUCUUGAGUUCCUGGAUAACACUGAAGAACGUGAUCAGAGAUAACAUAGUGUGACUUGU	0.584
UAGUUACAAUUACCUAGUUGGGGUUCUUCCUGAUGCAAGAAAUUUUUCACUGUUCGAGGCACAUGGUUAUUGGCUAUCCAUUUAGUUUUCACAGAGGCUGACCACCUUAC	0.757
CUCAGGGCCAAGCGGGGGCGUGGCUGGCCUUUCAGGUCCAGGCCAGUGGGCCUGGUAGCACAUGUCUGUCCUCAGAGCAGGGGCCAGAUGAUUUUCCUCCCUGGUUUGCA	4.56
UGGGUUGGUUCCUAUUACAUGAGCUCUUUUGCAGAUAGCACAUUCAGUAGCCUUAUCCUGUUGGUGGAAUACUGUACCAUAUGCUCCUCCAAAACCCAUGAACACGGCCA	0.262
GCUUGACUUAAUGCACUUACAGGCUCAGGAAGGAAUUUGCUAUCACUGUUGUGGCUUUUGACUUGGGGUGGUCCAGUGCCAGGCUGGAAGUAAGCACAGCCCAUCUCCUG	1.62
GUAGCCUGAGCCCAAGGCCAGCCUGGGCUACCUAACAAGACCCUGUCUCUAAAAGAAAAAAGAAUUAACAUCUUAUUUUCUUAGAUUUUAAGAGAGAGUCUCUGGCAAGA	0.3
UGGCCAUUUGCCUGGCUAGUUGCUGUCUACAAGGGAGCAUCAAAACAUCACUACUUCUUAUGUAACUUCUUCCAGCCAGUGCUUUUAUUGUUCGUUUUAGUUUACUGGGG	0.444
CGAAAAACAGAGCCUCCUAGAUGUAACAUUCCUGAUCAAGGUACAAUUCUUUAAAAUUCACUAAUGAUUGAGGUCCAUAUUUAGUGGUACUCUGAAAUUGGUCACUUUCC	0.303
UUGGUGGGGCCAGGGUCCUCUCCCCUGCCCAGGAAUGUGCAAGGCCAGGGCAUGGGGGCAAAUAUGACCCAGUUUUGGGAACACCGACAAACCCAGCCCUGGCGCUGAGC	0.537
CAUUGGUCUCUGGAAUAAGUGCCAGCCUUUUUGCCAUAGUUGACUUGCUUCCAUAUUGGAGCUCCUCAGUAGGAACAGCUGUGGCACUGGGCUGGGGACCAGGAAGAAGU	0.991
UUGGGUUUUGUUAUAGGCAUCAGUCUAACAAGUCAUUAGGUCACUCGGGAAGGGGGAAAAAGUUUAAAAUGGGGGAAAAAAAGCCAUCUUUUUAAACAAAAAUUAUUUUG	0.408

Sample 2
Target: Ras GTPase-activating protein-binding protein 1, full length (G3BP1, Homo sapiens, UniProt Q13283)
UniProt Q13283, sequence (whole entry, looked up): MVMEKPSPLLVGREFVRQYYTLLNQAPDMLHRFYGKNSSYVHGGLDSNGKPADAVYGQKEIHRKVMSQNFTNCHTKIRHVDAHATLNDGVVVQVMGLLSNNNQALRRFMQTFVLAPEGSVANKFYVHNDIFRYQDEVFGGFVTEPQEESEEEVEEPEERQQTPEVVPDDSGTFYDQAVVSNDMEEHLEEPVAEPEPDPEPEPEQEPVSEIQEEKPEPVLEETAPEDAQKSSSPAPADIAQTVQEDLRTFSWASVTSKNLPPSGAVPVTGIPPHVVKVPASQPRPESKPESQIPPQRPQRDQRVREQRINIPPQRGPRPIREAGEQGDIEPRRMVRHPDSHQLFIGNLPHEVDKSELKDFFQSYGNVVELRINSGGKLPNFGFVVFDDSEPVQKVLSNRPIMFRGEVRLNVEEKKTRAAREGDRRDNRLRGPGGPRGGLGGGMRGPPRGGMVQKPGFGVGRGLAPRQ
Method: RNA Bind-n-Seq
Form: RNA
Matrix: in vitro
Tested at: 200 nM
Setting: whole 134-nt RNA, ends assumed
Together with: 150 mM LiCl
Reference: input library
Direction: higher = stronger binding
All molecules: 7-deaza-guanosine replaces G
All sequences stand within: GGGAGUUCUACAGUCCGACGAUC … UGGAAUUCUCGGGUGUCAAGG
Oligonucleotide	log2 enrichment
UCAAGUCCUGUGCUACACAUCGUAUGUACCGAAUCGGAAGGGGAAGGGAAGGGGAAAGUAUUAUGUUACGCCGUUCGGAUCUGCACUUCC	-0.243
CCUCAAGUCCUGUGCUACACAUCGUAUGUACCGAAUCGGUUGGGUUGGGUUGGAAAGUAUUAUGUUACGCCGUUCGGAUCUGCACUUCCA	0.102
CCUCAAGUCCUGUGCUACACAUCGUAUGUACCGAAUCGGUUGGUUGGGUUGGAAAGUAUUAUGUUACGCCGUUCGGAUCUGCACUUCCAG	0.73
CCUGUGCUACACAUCGUAUGUACCGAAUCGGAAAAAAGGGGAAAAAAGGGGAAAAAAGGGGAAAGUAUUAUGUUACGCCGUUCGGAUCUG	0.538
CCUGUGCUACACAUCGUAUGUACCGAAUCGGGGUUUUUUUGGUUUUUUUGGGUUUUUUUGGAAAGUAUUAUGUUACGCCGUUCGGAUCUG	1.29
CCUCAAGUCCUGUGCUACACAUCGUAUGUACCGAAUCGGAAGGAAGGGAAGGGAAAGUAUUAUGUUACGCCGUUCGGAUCUGCACUUCCA	-0.0529
UCCUGUGCUACACAUCGUAUGUACCGAAUCGGGGCCCCCCGGCCCCCCGGGCCCCCCGGGAAAGUAUUAUGUUACGCCGUUCGGAUCUGC	0.0576
AAGUCCUGUGCUACACAUCGUAUGUACCGAAUCGGGGAGGGGAAAGGGGAAAGGGGAAAGUAUUAUGUUACGCCGUUCGGAUCUGCACUU	0.875
CCUGUGCUACACAUCGUAUGUACCGAAUCAAAUUUUUUUAAAUUUUUAAACCCCCCCAAAAAAGUAUUAUGUUACGCCGUUCGGAUCUGC	1.47
UGGCCCUGGUGGCAUGCGGGGAGGAAGAGGUGGCCUCAUGGAUCGUGGUGGUCGCGGUGGAAUGUUCAGAGGUGGCCGUGGUGGAGACAG	0.185
UGGCCCUGGUGGCAUGCGGGGAGGAAGAGGUGGCCUCAUGGAUCGUGGUGGUCCCGGUGGAUUGUUCAGAGGUGGCCGUGGUGGAGACAG	0.488

Sample 3
Target: Hepatocyte nuclear factor 3-alpha (Foxa1, Mus musculus, UniProt P35582, residues 1-468, full length assumed)
UniProt P35582, sequence (whole entry, looked up): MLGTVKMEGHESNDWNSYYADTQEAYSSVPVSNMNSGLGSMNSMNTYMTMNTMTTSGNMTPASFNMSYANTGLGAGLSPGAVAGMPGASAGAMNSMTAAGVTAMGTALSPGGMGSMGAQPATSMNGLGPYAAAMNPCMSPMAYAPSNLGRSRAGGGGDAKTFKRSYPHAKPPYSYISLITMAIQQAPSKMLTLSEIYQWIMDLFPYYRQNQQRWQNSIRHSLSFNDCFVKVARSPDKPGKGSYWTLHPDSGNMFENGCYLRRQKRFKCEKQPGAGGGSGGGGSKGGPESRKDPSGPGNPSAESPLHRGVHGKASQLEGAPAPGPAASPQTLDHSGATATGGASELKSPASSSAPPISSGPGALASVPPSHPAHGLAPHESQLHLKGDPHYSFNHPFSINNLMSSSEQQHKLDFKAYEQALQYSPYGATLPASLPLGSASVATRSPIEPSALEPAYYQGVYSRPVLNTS
Method: EMSA with sequencing
Form: double-stranded DNA, one strand shown
Matrix: in vitro
Tested at: 10 and 20 nM
Setting: whole designed probe, mean of two concentrations, ends assumed
Reference: negative control set to 0
Direction: higher = stronger binding
All sequences stand within: GTGAGCGGTGCCCATTGATGGGGAAC … TTTCACTGGGATCGTGGGGAC
Oligonucleotide	normalised bound fraction [ratio]
GGATTTTTGTTTTATCTGATTACAAAATAATACATGTTCATTAAAACACTTTAGAAGTCCCATCATGCAAGATTACTACTAAAAACCAAGATAAAATTACTTTTATTTAAATATGTACAGTGTTTTACAAAATTGGGATGAATCATGATGTGCATGTATAATTTTGAATCCTCCTTTGGTCACTTAATGTCAG	0.0427
GAAACTGCTAATGATGAACCATTCTGAATGCAAGCTTCCATTTACTTTACAGTACTGGATTTCTCTATGGGCCTACAGGAATGTATGGCAAAGTAAATAAGGAAACAGATAAGTGAAATAGGTCATAAGGATCTGTAATTAATTTCTCAATTTCTTCATTGTATCTGTAATCAATTTCTCAATTTCTTCATTG	0.39
AATATTTCAAACACTACGTACCCCAACTGACATTTGAGTAGCAGTTAAGTTCTTGGAACGCTGCCATTTTGATCTGATACGTATCAGCTCATTGTAAACAGGATGAAATAGGGCAGTTAAAAGACTAATGGTCAGTGAAATCTACAACAGGAATGGAAAGAATTTTCCCCTTAAAAATTTGGAAATCCTTATT	0.0168
TTTCCAGCCCTTAGTTTCTGGCATTTAACCTGACTCTGGTCCCTGAATGGCATGGGAGTGCTTTCAACCACAGGCTGACTCATTCATGCCACTTGTTTGCTTTTCTGTCACATTCTGATCTACAGAGATCTTTATTTGCTTTGTGTTTCCAATGGAGAAAGAGCTTGGGAAGGGAGGATCCTAATTGTCTAAA	0.507
ATCTTCCCCCTCTTCCTTGCCCCACCAGCTCACCTTCCCGGGTTATTTGCAGATAGGAAAATAAATAAAGCCGGCATTCGTTAACCCTCTTCTGGCGCAAACTGCTGTTTGCTCTGGATGAATCATGGTTATGGCGTCCCGCCAGGCTCCGGGAGAGCAAAGCACCGTGTCAGGGCCATGATCCGGGGTGGCC	0.356
CAAAATGTGTTCACCTAAAGAGTATTATTTGTAAAATGCTTCGTGTTTTCTCCCTTTATGCTGACATGTAATGCTGACTCATAAGGGACCTTGCTATTTACACAAGCAGCTTTCCTATGTAAATGAATGCAAGTGACCTACTTAGTGAATACCACCAAATAAAGCAATGATTCCAGAAATCAACCCATAAGTA	0.426
TAGGCCAGCGGTTTCTTGTATAAAGGAAACAAAAGTCATATAATTCCTTTTACTAAGGTCACTGAGCATTGCAGCTTCTTCCACGATGAGAGAGTAAACAGAAGATGACTAAGTGTTTTTGACATCCAAAGTCACCCACAGCCAGAACCAGAGTCTGGGAGAAGTGTATTTTGGACATCGTGACCTCAACTAT	0.203
CTGCACCACTCAGCCCCTCCTAGTCCGCTGGAGAAAGTGGCTGAGGGGGTGGTGGGGGATAATTGCATTTCCAAAGTCCGGGCAATCAGCCAATGTAAACAGGCACCTGCGTCACTGTGTGGGCTCTCTAGGCAACAGGTAAAATACATCAAATACACACAATTTCCTGACATTCCAATGCATTTCTGCGTGA	0.26

Sample 4
Target: Histone acetyltransferase KAT6A, winged helix 1, GST fusion (KAT6A, Homo sapiens, UniProt Q92794, residues 1-85)
Method: protein binding microarray
Form: double-stranded DNA, one strand shown
Matrix: in vitro
Tested at: not given
Setting: 8-mer, flanks averaged, mean of 2 arrays, mostly near background
Reference: not given
Direction: higher = stronger binding
Target sequence (chain): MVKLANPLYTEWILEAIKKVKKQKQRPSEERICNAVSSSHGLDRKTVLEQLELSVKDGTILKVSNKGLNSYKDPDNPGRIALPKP
Oligonucleotide	E-score
TCCTCGAA	-0.125
AACCCCTC	-0.152
ATTTGTGC	-0.00879
GCGATCCC	0.192
CCCATGGC	-0.0458
TACGAGCA	-0.13
AAGTGCAA	-0.116
GGGTAGAA	0.0515
ATATAACA	-0.0407
ATTTTTAC	-0.104
AATAAGGT	-0.0149
CCCTTTCC	0.0677
AACGCCAC	-0.0371
AAGTAAGA	-0.0788
ACCTCTCA	-0.0848
ACTCTAAA	-0.172
ATTATAGA	-0.002
TGACATCA	-0.128
AGTCGCAT	0.065
AAAAATAC	-0.0328
AGGCTTAC	0.00215
CCAACCTC	-0.0787
GAGCACTC	-0.192
CTGCGGTC	0.198

Some of these lines once more (sample 1):
Oligonucleotide	RBNS enrichment (R)
UUUGUUUAUUAACCUUUCCGUGUUUAAUGAAAACAAACAGGGAUAAAUAAAGUCUUGAGUUCCUGGAUAACACUGAAGAACGUGAUCAGAGAUAACAUAGUGUGACUUGU	0.584
UAGUUACAAUUACCUAGUUGGGGUUCUUCCUGAUGCAAGAAAUUUUUCACUGUUCGAGGCACAUGGUUAUUGGCUAUCCAUUUAGUUUUCACAGAGGCUGACCACCUUAC	0.757
CUCAGGGCCAAGCGGGGGCGUGGCUGGCCUUUCAGGUCCAGGCCAGUGGGCCUGGUAGCACAUGUCUGUCCUCAGAGCAGGGGCCAGAUGAUUUUCCUCCCUGGUUUGCA	4.56
UGGGUUGGUUCCUAUUACAUGAGCUCUUUUGCAGAUAGCACAUUCAGUAGCCUUAUCCUGUUGGUGGAAUACUGUACCAUAUGCUCCUCCAAAACCCAUGAACACGGCCA	0.262
GCUUGACUUAAUGCACUUACAGGCUCAGGAAGGAAUUUGCUAUCACUGUUGUGGCUUUUGACUUGGGGUGGUCCAGUGCCAGGCUGGAAGUAAGCACAGCCCAUCUCCUG	1.62
GUAGCCUGAGCCCAAGGCCAGCCUGGGCUACCUAACAAGACCCUGUCUCUAAAAGAAAAAAGAAUUAACAUCUUAUUUUCUUAGAUUUUAAGAGAGAGUCUCUGGCAAGA	0.3
UGGCCAUUUGCCUGGCUAGUUGCUGUCUACAAGGGAGCAUCAAAACAUCACUACUUCUUAUGUAACUUCUUCCAGCCAGUGCUUUUAUUGUUCGUUUUAGUUUACUGGGG	0.444
CGAAAAACAGAGCCUCCUAGAUGUAACAUUCCUGAUCAAGGUACAAUUCUUUAAAAUUCACUAAUGAUUGAGGUCCAUAUUUAGUGGUACUCUGAAAUUGGUCACUUUCC	0.303
